Assay results gathered from unrelated publications.
± marks the error that the study gave.

| SMILES | assay | system | setting | tissue uptake [%ID/g] |
| --- | --- | --- | --- | --- |
| CCCC[C@H](NC(=O)CN1CCC(NC(=O)CN2CCN(CC(=O)O)CCN(CC(=O)O)CCN(CC(=O)O)CC2)CC1)C(=O)N[C@H]1CC(=O)NCCCC[C@@H](C(N)=O)NC(=O)[C@H](Cc2c[nH]c3ccccc23)NC(=O)[C@H](CCCNC(=N)N)NC(=O)[C@@H](Cc2ccccc2)NC(=O)[C@H](Cc2c[nH]cn2)NC1=O [gallium-68 labelled] | – | C57BL/6J mice male B16-F10 tumour, muscle | 1 h post injection, unblocked | 0.2 |
| O=C([O-])c1cccc(CN(CCN(Cc2cn(Cc3ccccc3)nn2)Cc2cccc(C(=O)[O-])n2)Cc2cn(Cc3ccccc3)nn2)n1.[64Cu+2] | – | healthy athymic nude mice, stomach | intravenous, 4 h | 5.11 |
| O=C([O-])CN1CCN(CC(=O)[O-])CCN(CC(=O)NCCc2ccc3c(c2)C2C=CCC2C(c2cc4c(cc2Br)OCO4)N3)CCN(CC(=O)[O-])CC1.[111In+3] (stereo not shown) | – | mice with Hec50 tumour xenograft, urinary bladder | 4 h | 0.36 ± 0.16 |
| O=C([O-])CN1CCN(CC(=O)O)CCN(CC(=O)[O-])CCN(CC(=O)NCC2CCC(C(=O)NC(Cc3ccc4ccccc4c3)C(=O)NCCCCC(NC(=O)NC(CCC(=O)O)C(=O)O)C(=O)O)CC2)CC1.[212Pb+2] (stereo not shown) | – | athymic mice, C4-2 prostate cancer xenograft, tumour | intravenous, 2 h, 212Pb-labelled | 17.9 ± 2.9 |
| NC12CNCCNCC(NCc3ccc(CNC(=O)CCCC(=O)NCc4ccc(-c5nncnn5)cc4)cc3)(CNCCNC1)CNCCNC2.[64Cu+2] | biodistribution | healthy athymic nude mice, large intestine | 1 h p.i. | 0.07 ± 0.01 |
| CN1C(=O)[C@@H](Cc2ccc(O)c(I)c2)NC(=O)CNC(=O)[C@H](Cc2ccc3ccccc3c2)NC(=O)[C@H](CCCNC(=N)N)NC(=O)[C@H]1CCCNC(=O)c1ccc(CNC(=O)CN2CCN(CC(=O)O)CCN(CC(=O)O)CCN(CC(=O)O)CC2)cc1 [lutetium-177 labelled] | item: 177Lu radioactivity | female CB-17 SCID mice, Daudi xenograft, small intestine | intravenous, 0.16 nmol per mouse, 48 h | 0.11 ± 0.02 |
| N=C(N)NCCC[C@@H]1NC(=O)[C@H](CCCCNC(=O)CON=C[C@H](F)[C@@H](O)[C@H](O)[C@H](O)CO)NC(=O)[C@@H](Cc2ccc(O)cc2)NC(=O)[C@H](CC(=O)O)NC(=O)CNC1=O [fluorine-18 labelled] | – | nude mice U-87 MG tumour, spleen | intravenous, 0.5 h | 0.19 ± 0.16 |
| O=C([O-])CN1CCN(CC(=O)[O-])CCN(CC(=O)[O-])CCN(CC(=O)[O-])CC1.[64Cu+2] | – | healthy athymic nude mice, blood | intravenous, 1 h | 0.21 |
| CC(C)[C@H](NC(=O)[C@@H]1CCCN1C(=O)[C@H](CCCNC(=N)N)NC(=O)[C@H](CS)NC(=O)[C@H](Cc1c[nH]c2ccccc12)NC(=O)[C@H](CCCNC(=N)N)NC(=O)[C@@H](Cc1ccccc1)NC(=O)[C@H](Cc1c[nH]cn1)NC(=O)[C@H](CCC(=O)O)NC(=O)[C@H](CS)NC(=O)[C@H](CS)NC(=O)[C@@H]1CC(=O)N[C@@H](CCCNC(=N)N)C(=O)NCC(=O)N[C@@H](CC(=O)O)C(=O)N[C@H](Cc2ccc(O)cc2)C(=O)N1)C(N)=O [technetium-99m labelled] | – | C57 mice B16/F1 melanoma female, tumor | iv, 2 h, added: NDP-MSH 10 µg co-injected | 2.55 ± 0.07 |
| CCCC[C@H](NC(=O)CNC(=O)CNC(=O)CN1CCN(CC(=O)O)CCN(CC(=O)O)CC1)C(=O)N[C@H]1CC(=O)NCCCC[C@@H](C(N)=O)NC(=O)[C@H](Cc2c[nH]c3ccccc23)NC(=O)[C@H](CCCNC(=N)N)NC(=O)[C@@H](Cc2ccccc2)NC(=O)[C@H](Cc2c[nH]cn2)NC1=O [gallium-67 labelled] | – | female C57 mice, B16/F1 melanoma, muscle | intravenous, 0.037 MBq, 2 h | 0.34 ± 0.12 |
| CC(C)[C@H](NC(=O)[C@@H]1CCCN1C(=O)[C@H](CCCNC(=N)N)NC(=O)[C@H](CS)NC(=O)[C@H](Cc1c[nH]c2ccccc12)NC(=O)[C@H](CCCNC(=N)N)NC(=O)[C@@H](Cc1ccccc1)NC(=O)[C@H](Cc1c[nH]cn1)NC(=O)[C@H](CCC(=O)O)NC(=O)[C@H](CS)NC(=O)[C@H](CS)NC(=O)CNC(=O)[C@@H]1CC(=O)N[C@@H](CCCNC(=N)N)C(=O)NCC(=O)N[C@@H](CC(=O)O)C(=O)N[C@H](Cc2ccc(O)cc2)C(=O)N1)C(N)=O [technetium-99m labelled] | – | C57 mice B16/F1 melanoma female, kidneys | iv, 0.037 MBq, 2 h | 20.9 ± 4.51 |
| CCCC[C@H](NC(=O)CNC(=O)CNC(=O)CN1CCN(CC(=O)O)CCN(CC(=O)O)CCN(CC(=O)O)CC1)C(=O)N[C@H]1CC(=O)NCCCC[C@@H](C(N)=O)NC(=O)[C@H](Cc2c[nH]c3ccccc23)NC(=O)[C@H](CCCNC(=N)N)NC(=O)[C@@H](Cc2ccccc2)NC(=O)[C@H](Cc2c[nH]cn2)NC1=O [gallium-67 labelled] | – | female C57 mice, B16/F1 melanoma, lung | intravenous, 0.037 MBq, 24 h | 0.32 ± 0.19 |
| CCCC[C@@H]1NC(=O)[C@@H](NC(=O)[C@H](CCC(=O)O)NC(=O)CNC(=O)CN2CCN(CC(=O)O)CCN(CC(=O)O)CCN(CC(=O)O)CC2)CCCCNC(=O)C[C@@H](C(N)=O)NC(=O)[C@H](C(C)C)NC(=O)[C@@H]2CCCN2C(=O)[C@H](CCCNC(=N)N)NC(=O)CNC(=O)[C@H](Cc2c[nH]c3ccccc23)NC(=O)[C@H](CCCNC(=N)N)NC(=O)[C@@H](Cc2ccccc2)NC(=O)[C@H](Cc2c[nH]cn2)NC(=O)[C@H](CCC(=O)O)NC1=O [gallium-67 labelled] | – | C57 mice, B16/F1 flank melanoma, skin | intravenous, 2 h, added: blocking peptide 10 µg | 0.04 |

Excerpt of the above:
| SMILES | assay | system | setting | tissue uptake [%ID/g] |
| --- | --- | --- | --- | --- |
| CCCC[C@H](NC(=O)CNC(=O)CNC(=O)CN1CCN(CC(=O)O)CCN(CC(=O)O)CC1)C(=O)N[C@H]1CC(=O)NCCCC[C@@H](C(N)=O)NC(=O)[C@H](Cc2c[nH]c3ccccc23)NC(=O)[C@H](CCCNC(=N)N)NC(=O)[C@@H](Cc2ccccc2)NC(=O)[C@H](Cc2c[nH]cn2)NC1=O [gallium-67 labelled] | – | female C57 mice, B16/F1 melanoma, muscle | intravenous, 0.037 MBq, 2 h | 0.34 ± 0.12 |
